Results of several laboratories.
Every numbered part comes from another study and shows a few of its results, in no order. Changes are numbered by the printed parent chain.

Block 1 — target: CCNE2, cyclin fold, Cln2 fusion (human); method: yeast growth competition, sequencing; sample: yeast; notes: weak parent motif; reference: not given; reading: higher = stronger binding
Parent: SAMHD1 docking peptide (human); ASKSRVQLFKDDP; partner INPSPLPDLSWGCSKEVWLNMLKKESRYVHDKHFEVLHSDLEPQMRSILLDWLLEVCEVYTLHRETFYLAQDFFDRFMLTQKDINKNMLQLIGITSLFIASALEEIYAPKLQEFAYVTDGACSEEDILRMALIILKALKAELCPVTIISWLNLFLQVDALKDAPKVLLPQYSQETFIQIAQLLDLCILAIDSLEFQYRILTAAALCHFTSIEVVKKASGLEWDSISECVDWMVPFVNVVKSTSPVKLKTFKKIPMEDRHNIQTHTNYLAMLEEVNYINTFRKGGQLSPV
Change | normalised enrichment score
D12F | 0.125
R5L | -0.351
S2Q | 0.00255
K3I | 0.395
S2D | -0.19
Q7N | 0.292
L8K | 0.4
Q7S | -0.147
S2L | 0.391
S4G | -0.101
L8F | -0.0659
K10V | -0.0537
L8T | -0.101

Block 2 — target: CREB3L4, bZIP domain (human); method: DHFR protein complementation; sample: yeast; reference: wild-type JUN-FOS pair; reading: higher = stronger binding
Notes: single substitutions, most at no-binding floor
Parent: JUN, bZIP domain (human); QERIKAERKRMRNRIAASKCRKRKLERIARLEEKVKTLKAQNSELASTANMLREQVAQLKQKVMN; partner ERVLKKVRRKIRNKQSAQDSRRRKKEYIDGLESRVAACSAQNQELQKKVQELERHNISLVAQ
Change | binding fitness [natural log]
E33S | -1.44
T37V | -1.47
K34C | -1.47
E44P | -1.49
S47I | -1.27
S43T | -1.29
N42Q | -1.37
L52G | -1.48
N42G | -1.45
E54I | -1.37
A57K | -1.57
S47R | -1.36
K34T | -1.53

Block 3 — method: universal PBM; molecule type: double-stranded DNA, one strand shown; sample: in vitro; tested at: not given; reading: higher = stronger binding
Target: Sal-like protein 4, full length isoform B (SALL4, Homo sapiens, UniProt Q9UJQ4-2, residues 1-616)
Notes: 8-mer, flanks averaged, mean of replicates
Construct (chain): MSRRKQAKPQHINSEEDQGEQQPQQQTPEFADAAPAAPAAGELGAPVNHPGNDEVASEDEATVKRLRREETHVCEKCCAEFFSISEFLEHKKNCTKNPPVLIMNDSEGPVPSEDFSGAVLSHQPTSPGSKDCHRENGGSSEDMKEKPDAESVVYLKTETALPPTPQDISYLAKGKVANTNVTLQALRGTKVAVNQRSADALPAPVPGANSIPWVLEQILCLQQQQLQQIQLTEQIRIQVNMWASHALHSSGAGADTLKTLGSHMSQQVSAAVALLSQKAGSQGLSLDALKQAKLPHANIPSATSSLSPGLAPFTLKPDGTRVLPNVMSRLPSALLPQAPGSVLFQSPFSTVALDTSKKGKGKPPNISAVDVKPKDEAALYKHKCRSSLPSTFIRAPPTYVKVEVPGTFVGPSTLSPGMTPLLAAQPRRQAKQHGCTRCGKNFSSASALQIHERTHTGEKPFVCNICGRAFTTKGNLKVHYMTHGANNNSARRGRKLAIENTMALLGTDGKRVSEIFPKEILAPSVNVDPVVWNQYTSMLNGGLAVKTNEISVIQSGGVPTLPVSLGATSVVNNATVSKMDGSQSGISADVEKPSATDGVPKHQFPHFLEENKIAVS
Oligonucleotide | E-score
GCGGGCTA | -0.212
AAATGCCT | 0.132
GCATATAC | 0.157
ACACTCGT | 0.0551
AACTTGCT | -0.0417
GGAGTCCA | -0.159
GGCTGATA | -0.00583
GACGGTGC | -0.253
GGCACCGA | -0.216
ACTGACTA | 0.0104
AAACCCTT | 0.14
AATCAGGT | 0.178
GTCAAGAA | 0.0638
AGCGGGAC | -0.274
CGATACCG | -0.238
ATCGTAAT | 0.266
AGGAACTA | -0.0704
CGTCACCA | -0.0276
CGTAGCCA | -0.00494
TCAGGTAA | 0.135
GCAGCCCC | -0.289
AAACTATC | 0.156
AGGATGCG | -0.0765

Block 4 — method: protein binding microarray; molecule type: double-stranded DNA, one strand shown; sample: in vitro; tested at: not given; reference: not given; reading: higher = stronger binding
Target: Histone acetyltransferase KAT6A, both winged helices, GST fusion (KAT6A, Homo sapiens, UniProt Q92794, residues 1-181)
Notes: 8-mer, flanks averaged, mean of 2 arrays, mostly near background
Construct (chain): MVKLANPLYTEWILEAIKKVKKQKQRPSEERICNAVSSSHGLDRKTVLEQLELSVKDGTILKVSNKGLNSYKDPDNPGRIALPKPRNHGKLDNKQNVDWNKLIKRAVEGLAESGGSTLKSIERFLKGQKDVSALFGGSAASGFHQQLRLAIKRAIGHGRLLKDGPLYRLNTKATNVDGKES
Oligonucleotide | E-score
CCTGTAGC | -0.107
AGGACGGC | 0.215
AGTCGAAT | -0.1
CGCAGCCA | -0.00466
AAAAGCAG | -0.159
ACCTCGGG | 0.0382
CCAAGTTA | -0.141
ACTTAGCG | 0.101
AGGCTAAT | -0.133
CGAGAAAA | -0.096
AAAAGGAA | -0.148
GATCGGCA | 0.12
ATACACAG | -0.00809
TAGGCAGA | -0.0707
AAACAATA | 0.03
AAATCGAT | -0.0596
CGAGGCCC | 0.000305
CTGGCCGA | 0.141
GTGGGTGA | -0.0483
ACATCACT | -0.118
AGTAGTAC | 0.0311
GAGCACAA | -0.192

Block 5 — method: DHFR PCA, deep sequencing; sample: yeast; together with: (+)-ABA 0.032 µM; reference: wild-type fitted maximum; reading: higher = stronger binding
Target: ABI1, truncated, D143A, DHFR fusion (Arabidopsis thaliana)
Notes: methotrexate growth selection, single substitutions
Parent: PYL1, truncated, DHFR fusion (Arabidopsis thaliana); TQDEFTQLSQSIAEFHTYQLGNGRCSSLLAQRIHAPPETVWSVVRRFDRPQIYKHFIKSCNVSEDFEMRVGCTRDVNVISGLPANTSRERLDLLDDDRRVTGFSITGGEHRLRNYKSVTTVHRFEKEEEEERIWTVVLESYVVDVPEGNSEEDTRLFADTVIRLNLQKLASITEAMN; partner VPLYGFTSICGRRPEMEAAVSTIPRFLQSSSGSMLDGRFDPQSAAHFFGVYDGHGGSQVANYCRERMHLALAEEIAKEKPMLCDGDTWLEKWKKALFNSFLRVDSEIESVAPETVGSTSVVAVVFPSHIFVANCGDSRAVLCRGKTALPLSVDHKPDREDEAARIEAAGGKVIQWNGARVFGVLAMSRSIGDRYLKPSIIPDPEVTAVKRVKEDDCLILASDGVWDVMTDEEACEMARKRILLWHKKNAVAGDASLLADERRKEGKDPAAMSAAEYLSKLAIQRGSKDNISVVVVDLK
Change | relative binding score [%]
Y115H | 8.13
K54N | -3.77
D48S | -5.06
E125L | 17.3
T119L | 8.95
P146M | 15.7
D95L | -3.07
E152Q | 13.2
K54H | 3.88
I172V | 45.1
Q19S | 24.9
N22V | 35.5
V100H | -1.73
W41M | -3.93
I133M | 18.9
V44Y | -5.84

Block 6 — method: RNA Bind-n-Seq; molecule type: RNA; sample: in vitro; tested at: 200 nM; notes: whole 134-nt RNA, ends assumed; together with: 150 mM KCl; reference: input library; reading: higher = stronger binding
Target: Ras GTPase-activating protein-binding protein 1, full length (G3BP1, Homo sapiens, UniProt Q13283)
UniProt Q13283, sequence (whole entry, looked up): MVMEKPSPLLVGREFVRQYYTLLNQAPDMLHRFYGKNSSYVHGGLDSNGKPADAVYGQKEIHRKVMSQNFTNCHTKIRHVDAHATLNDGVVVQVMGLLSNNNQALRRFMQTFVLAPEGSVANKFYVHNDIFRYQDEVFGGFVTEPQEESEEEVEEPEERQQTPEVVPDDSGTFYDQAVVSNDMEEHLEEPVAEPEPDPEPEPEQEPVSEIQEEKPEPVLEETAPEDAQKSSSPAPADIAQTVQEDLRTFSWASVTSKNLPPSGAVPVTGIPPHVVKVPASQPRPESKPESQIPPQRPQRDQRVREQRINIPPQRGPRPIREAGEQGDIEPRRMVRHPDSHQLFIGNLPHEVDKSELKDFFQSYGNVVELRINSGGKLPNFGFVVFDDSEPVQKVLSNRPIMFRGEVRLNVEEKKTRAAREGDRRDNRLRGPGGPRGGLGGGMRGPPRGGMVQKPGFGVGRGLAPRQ
All sequences stand within: GGGAGUUCUACAGUCCGACGAUC … UGGAAUUCUCGGGUGUCAAGG
Oligonucleotide | log2 enrichment
AAGUCCUGUGCUACACAUCGUAUGUACCGAAUCGGUUUUUGGUUUUUGGUUUUUGGGAAAGUAUUAUGUUACGCCGUUCGGAUCUGCACU | -1.53
ACCAUGCUGGUGGGCAUCUUUGGGAAGUGGGGCAAGGGGGGGAUAGGGAGGGGGGUAACACUUUGGGAACAGGUGGUCCCAGGUCGUUUC | 1.29
AGUCCUGUGCUACACAUCGUAUGUACCGAAUCGGGGAGGGGAAAAAGGGGUUUGGGGAAAGUAUUAUGUUACGCCGUUCGGAUCUGCACU | 0.317
GUCCUGUGCUACACAUCGUAUGUACCGAAUCGGUUUUUGGGGUUUUUGGGUUUUUGGGAAAGUAUUAUGUUACGCCGUUCGGAUCUGCAC | -0.649
CUCAAGUCCUGUGCUACACAUCGUAUGUACCGAAUCGGGCCGGGCCGGGCCGGGAAAGUAUUAUGUUACGCCGUUCGGAUCUGCACUUCC | 0.187
GUAGAAAUUCAUGUAUAAAUGGAACCAUAUAGUACAUACAUAUCAUACUCUUAGGUCUGGCAAAUAUUUGAGGUUCAUCCAUAUUUUAUA | -1.64
CUGUGCUACACAUCGUAUGUACCGAAUCGGGGAAAAAAGGGGAAAAAAGGGGAAAAAAGGGAAAGUAUUAUGUUACGCCGUUCGGAUCUG | -0.228
CAAGUCCUGUGCUACACAUCGUAUGUACCGAAUCGGCCCGGGGCCCGGGCCCGGGGAAAGUAUUAUGUUACGCCGUUCGGAUCUGCACUU | -0.698
CACAGACAACACGCACCCACACAGACACAGAGGGAAGGGGUUGGGAUGGGGACAGGGUUCACAGCAGGGCGGGGUAGGACCCCAGCCCCU | 1.6

Block 7 — method: protein-binding microarray; molecule type: double-stranded DNA, one strand shown; sample: in vitro; tested at: 940 nM top; notes: 60-bp whole probe; together with: salmon DNA 0.4 mg/ml; reference: random background probes; reading: higher = stronger binding; all sequences stand within: GCCTAGCAC … GTCTTGATTCGCTTGACGCTGCTG
Target: Interferon regulatory factor 5, full length, phosphomimetic (IRF5, Homo sapiens, UniProt Q13568-2, residues 1-514, S451D/S453D/S456D/S462D)
Oligonucleotide | fitted relative affinity [z-score]
GATGGACTGGGTTTCGGGACGTGCTAG | 2.57
TTGGTTTCTGGTTTATTGAGGTGCTAG | 6.16
CGCTTTTTTTTTTTTTTTTTGTGCTAG | 0.865
CTAATATTGAGACTCATGGGGTGCTAG | 0.0989
TTAGGACTGGGTATCGGTTTGTGCTAG | 3.32
TTAGGTCTCCTACTGCTATAGTGCTAG | 0.227
GACGGTCTCCTTCTCCTGACGTGCTAG | 0.386
GACGGTATCGGAATGGGGACGTGCTAG | 3.65
GACAATTTCAGTCTCGAGACGTGCTAG | 2.27
GACGGTATCGACTAACGGGACGTGCTA | 5.07
TCAGGCTTCTATGTAGTACTGTGCTAG | -0.113
GACGATATCGAGACTGGAGACGTGCTA | 0.443
ATGCTTCTGGTCTTCTGGGCGTGCTAG | 0.289
TTAGGTATCCTTATACTTTAGTGCTAG | 0.472
AGAGCAGACCCAGAGTGGCAGTGCTAG | -0.205
TCAATTCTGAATTCGAAACTGTGCTAG | 0.235
ATAGGTTTCGACTATCGGTTAGTGCTA | 8.7
TCAGTTTTTCATTTTGTACTGTGCTAG | 1.33

For quick reference, copied from above (block 7):
Oligonucleotide | fitted relative affinity [z-score]
CTAATATTGAGACTCATGGGGTGCTAG | 0.0989
TTAGGACTGGGTATCGGTTTGTGCTAG | 3.32
TTAGGTCTCCTACTGCTATAGTGCTAG | 0.227
GACGGTCTCCTTCTCCTGACGTGCTAG | 0.386
GACGGTATCGGAATGGGGACGTGCTAG | 3.65
GACAATTTCAGTCTCGAGACGTGCTAG | 2.27
GACGGTATCGACTAACGGGACGTGCTA | 5.07
TCAGGCTTCTATGTAGTACTGTGCTAG | -0.113
GACGATATCGAGACTGGAGACGTGCTA | 0.443
ATGCTTCTGGTCTTCTGGGCGTGCTAG | 0.289
TTAGGTATCCTTATACTTTAGTGCTAG | 0.472
AGAGCAGACCCAGAGTGGCAGTGCTAG | -0.205
TCAATTCTGAATTCGAAACTGTGCTAG | 0.235
ATAGGTTTCGACTATCGGTTAGTGCTA | 8.7
